{"data": "Published values pooled from the literature", "note": "Every numbered part comes from another study and shows a few of its results, in no order. Substitutions count along the parent as printed."}
{"data": "Block 1", "target": "Interferon regulatory factor 5, full length, phosphomimetic (IRF5, Homo sapiens, UniProt Q13568-2, residues 1-514, K96S/S451D/S453D/S456D/S462D)", "technique": "protein-binding microarray", "form": "double-stranded DNA, one strand shown", "matrix": "in vitro", "tested at": "250 nM", "setting": "60-bp whole probe", "added": "salmon DNA 0.4 mg/ml", "relative to": "random background probes", "reading": "higher = stronger binding", "shared flanks, not repeated": "GCCTAGCAC … GTCTTGATTCGCTTGACGCTGCTG"}
{"Strand": "TCATGTCTGATTATTTAACTGTGCTAG", "log fluorescence": "0.649 z-score"}
{"Strand": "GACAGTTTCGGTTCCGGGACGTGCTAG", "log fluorescence": "10.8 z-score"}
{"Strand": "GTCACTCTCAGAATCTCTCAGTGCTAG", "log fluorescence": "0.11 z-score"}
{"Strand": "GATGGTATCCTTTTCCTGACGTGCTAG", "log fluorescence": "0.587 z-score"}
{"Strand": "CACCTTCTTCATCAAGGACAGTGCTAG", "log fluorescence": "0.391 z-score"}
{"Strand": "TTTCCTCTTTCTTTGCTTCAGTGCTAG", "log fluorescence": "4.36 z-score"}
{"Strand": "TAAGGACTGGACACTGGGTTAGTGCTA", "log fluorescence": "-0.256 z-score"}
{"Strand": "CTAGGACTGGGGTTTCGGTTAGTGCTA", "log fluorescence": "6.68 z-score"}
{"Strand": "TTACGTCTCGGTCTCGGTTAGTGCTAG", "log fluorescence": "1.7 z-score"}
{"Strand": "GAGGGTATCGACACTGGGGACGTGCTA", "log fluorescence": "0.874 z-score"}
{"Strand": "TTAAATATCGGGACTGGATTAGTGCTA", "log fluorescence": "1.65 z-score"}
{"Strand": "GACGATATGAGACTGGAGACGTGCTAG", "log fluorescence": "0.374 z-score"}
{"Strand": "TTAGATATCAGTTTAGATTAGTGCTAG", "log fluorescence": "2.06 z-score"}
{"Strand": "TACGGTCTCGGACTGGGGACGTGCTAG", "log fluorescence": "-0.0955 z-score"}
{"Strand": "TCATGCTTTCTTTTTGCACTGTGCTAG", "log fluorescence": "1.64 z-score"}
{"Strand": "TTAGGACTGGGGTTTGGGTTAGTGCTA", "log fluorescence": "-0.322 z-score"}
{"Strand": "TCAAGTTTCTATTTTCTACTGTGCTAG", "log fluorescence": "4.3 z-score"}
{"Strand": "GACGAACCGAGTTTCGAGACGTGCTAG", "log fluorescence": "4.66 z-score"}
{"Strand": "TTAGATCTCAGCCTCGATTAGTGCTAG", "log fluorescence": "-0.0978 z-score"}
{"Strand": "TTAGGACTGGGGACTGGGCTAGTGCTA", "log fluorescence": "-0.582 z-score"}
{"Strand": "GACGGTTTCGGGACTGCGGACGTGCTA", "log fluorescence": "5.13 z-score"}
{"Strand": "TTAGGTATCGTTTTCCTTTAGTGCTAG", "log fluorescence": "4.15 z-score"}
{"Strand": "GGCGGACTGGGTTTCGGGACGTGCTAG", "log fluorescence": "2.02 z-score"}
{"data": "Block 2", "target": "Centromere-binding protein 1, full length, His-tagged (CBF1, Saccharomyces cerevisiae, UniProt P17106, residues 1-351)", "technique": "competition protein-binding microarray", "form": "double-stranded DNA, one strand shown", "matrix": "in vitro", "tested at": "2 µM", "setting": "whole 60-bp probe, lowest competitor level", "added": "Pho4 competitor, 0.05 µM", "reading": "higher = stronger binding", "chain of UniProt P17106 (whole entry, looked up)": "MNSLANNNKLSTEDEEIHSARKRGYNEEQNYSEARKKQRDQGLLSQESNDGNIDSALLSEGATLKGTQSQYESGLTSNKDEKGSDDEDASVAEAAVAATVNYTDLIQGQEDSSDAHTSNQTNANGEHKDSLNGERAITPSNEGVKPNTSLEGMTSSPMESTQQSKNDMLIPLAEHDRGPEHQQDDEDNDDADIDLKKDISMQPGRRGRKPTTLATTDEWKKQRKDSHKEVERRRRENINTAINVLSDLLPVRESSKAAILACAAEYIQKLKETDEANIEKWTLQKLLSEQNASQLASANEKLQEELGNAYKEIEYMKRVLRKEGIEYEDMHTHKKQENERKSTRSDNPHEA"}
{"Strand": "CTCTATCTTGTACGCAACGTGTGGAGCTTTATTCTAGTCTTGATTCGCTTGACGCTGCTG", "fluorescence intensity [a.u.]": 83.8}
{"Strand": "TGGCGGCGGGATCTACACGTGCGCCTCGGGAAGGCGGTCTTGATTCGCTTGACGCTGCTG", "fluorescence intensity [a.u.]": 760}
{"Strand": "TCTGAACTAAAAAAAGGCGTGCCAGATACTATATATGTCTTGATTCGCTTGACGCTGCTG", "fluorescence intensity [a.u.]": 131}
{"Strand": "GATCTTGACCTTACCGTCGTGACGGGCAGCCTTGATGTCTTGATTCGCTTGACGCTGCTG", "fluorescence intensity [a.u.]": 80.3}
{"Strand": "CGGGGTTAAGTTTGCGCTGTGGGTGGCTTGCAGCAGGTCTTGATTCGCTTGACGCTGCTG", "fluorescence intensity [a.u.]": 79}
{"Strand": "TGCGCAACAACTTGTGTAGTGGGTGTATGTCTAGAAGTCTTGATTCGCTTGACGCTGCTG", "fluorescence intensity [a.u.]": 65.3}
{"Strand": "AGCAAGTAATCTTTGCACGTGGCCGGACGTAGATGAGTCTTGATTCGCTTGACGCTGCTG", "fluorescence intensity [a.u.]": 1050}
{"Strand": "CAATGGCTCAGTAACCTCGTGATGGAAAAAGGGAAAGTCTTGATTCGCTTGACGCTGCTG", "fluorescence intensity [a.u.]": 503}
{"Strand": "CGTCCTAGTGATTGGTCCGTGGGTGCCATGAGGAAGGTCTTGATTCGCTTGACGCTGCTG", "fluorescence intensity [a.u.]": 76.2}
{"Strand": "TCAACTTGGGCAGCACACATGCAAAACATCACCCAAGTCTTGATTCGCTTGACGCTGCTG", "fluorescence intensity [a.u.]": 97.1}
{"Strand": "GTCTTGTCTCATTGGCACGTGGGTGTCCCCACTTCAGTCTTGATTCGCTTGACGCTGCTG", "fluorescence intensity [a.u.]": 1030}
{"Strand": "AAAGCGGTAATTTGCCGAGTGGGTGCAGATATCTATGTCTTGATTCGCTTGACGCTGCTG", "fluorescence intensity [a.u.]": 79.3}
{"Strand": "CCGACGAAACCGTTCCACGTGTGTTCGACTTGAAAAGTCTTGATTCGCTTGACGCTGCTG", "fluorescence intensity [a.u.]": 469}
{"Strand": "AGCGGGGTAACCCATCACGTGGGTAGCCATTTTTCCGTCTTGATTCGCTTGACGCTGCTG", "fluorescence intensity [a.u.]": 3700}
{"Strand": "CTTCTGTAAATTTTTCACGTGACGTGAAGCGCCCCGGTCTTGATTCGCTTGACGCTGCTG", "fluorescence intensity [a.u.]": 4390}
{"Strand": "CTTGCATGGGTGGTGCCCGTGGAGGACGCTCCTAGTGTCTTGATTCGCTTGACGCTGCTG", "fluorescence intensity [a.u.]": 62.6}
{"Strand": "AGAACACAGTTTCGGCACGTGGAAGGTGTTTGGGACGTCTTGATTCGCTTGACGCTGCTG", "fluorescence intensity [a.u.]": 1110}
{"Strand": "TGCAGGGAGAGGTCACACGAGGACGCAGGGATGCTGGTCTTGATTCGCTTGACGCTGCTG", "fluorescence intensity [a.u.]": 102}
{"Strand": "GTCTTGTCTCATTGTCACCACACTTTCCCCACTTCAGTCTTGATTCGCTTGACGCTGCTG", "fluorescence intensity [a.u.]": 88.8}
{"Strand": "TAGTTTGCTGTCCGTCACGTGCTAAAGGGTCTGATAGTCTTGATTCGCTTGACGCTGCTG", "fluorescence intensity [a.u.]": 7250}
{"data": "Block 3", "target": "CCNF, cyclin fold, Cln2 fusion (human)", "technique": "yeast growth competition, sequencing", "matrix": "yeast", "setting": "weak parent motif", "relative to": "not given", "reading": "higher = stronger binding", "parent": "MASTL docking peptide (human); PMIAKNLMCELDE"}
{"Change": "I3S", "normalised enrichment score": -0.0836}
{"Change": "D12E", "normalised enrichment score": -0.239}
{"Change": "L11V", "normalised enrichment score": -0.0885}
{"Change": "D12W", "normalised enrichment score": 0.185}
{"Change": "L7I", "normalised enrichment score": -0.316}
{"Change": "M8E", "normalised enrichment score": -0.384}
{"Change": "L11M", "normalised enrichment score": -0.382}
{"Change": "L7N", "normalised enrichment score": -0.172}
{"Change": "I3C", "normalised enrichment score": 0.266}
{"Change": "A4L", "normalised enrichment score": -0.403}
{"Change": "L7G", "normalised enrichment score": -0.73}
{"Change": "L7D", "normalised enrichment score": -0.617}
{"Change": "K5H", "normalised enrichment score": 0.137}
{"Change": "I3F", "normalised enrichment score": -0.247}
{"Change": "K5C", "normalised enrichment score": -0.29}
{"Change": "D12T", "normalised enrichment score": 0.42}
{"Change": "N6R", "normalised enrichment score": 0.627}
{"data": "Other studies, line by line"}
{"Molecule": "PhoQ, residues 284 288 289 292 302 303 SMYGEC", "target": "PhoP, residues 12 14 15 18 19 NQFFI (Escherichia coli, UniProt P23836)", "assay": "Sort-seq, item: YFP reporter", "system": "E. coli", "conditions": "PhoQ-PhoP variant library, added: 10 µM Mg2+", "how to read": "relative to: high Mg2+ state, higher = stronger signaling", "endpoint": "fold induction", "result": 3.1}
{"note": "Some of these lines once more (block 2):"}
{"Strand": "CGTCCTAGTGATTGGTCCGTGGGTGCCATGAGGAAGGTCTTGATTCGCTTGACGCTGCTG", "fluorescence intensity [a.u.]": 76.2}
{"Strand": "GTCTTGTCTCATTGTCACCACACTTTCCCCACTTCAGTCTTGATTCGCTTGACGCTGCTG", "fluorescence intensity [a.u.]": 88.8}
{"Strand": "TGCGCAACAACTTGTGTAGTGGGTGTATGTCTAGAAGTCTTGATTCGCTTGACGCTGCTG", "fluorescence intensity [a.u.]": 65.3}
{"Strand": "GATCTTGACCTTACCGTCGTGACGGGCAGCCTTGATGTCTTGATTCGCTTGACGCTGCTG", "fluorescence intensity [a.u.]": 80.3}
{"Strand": "TGGCGGCGGGATCTACACGTGCGCCTCGGGAAGGCGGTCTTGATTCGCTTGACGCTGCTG", "fluorescence intensity [a.u.]": 760}
{"Strand": "TGCAGGGAGAGGTCACACGAGGACGCAGGGATGCTGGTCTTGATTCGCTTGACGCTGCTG", "fluorescence intensity [a.u.]": 102}
{"Strand": "TCTGAACTAAAAAAAGGCGTGCCAGATACTATATATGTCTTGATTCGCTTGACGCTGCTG", "fluorescence intensity [a.u.]": 131}
{"Strand": "GTCTTGTCTCATTGGCACGTGGGTGTCCCCACTTCAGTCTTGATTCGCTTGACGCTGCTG", "fluorescence intensity [a.u.]": 1030}
{"Strand": "TCAACTTGGGCAGCACACATGCAAAACATCACCCAAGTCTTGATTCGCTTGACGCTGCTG", "fluorescence intensity [a.u.]": 97.1}
